Assay results gathered from unrelated publications.
Each line is one published result; not all experiments were run side by side. Numbers after ± are the reported error.

| Compound | test system | setting | Cmax |
| --- | --- | --- | --- |
| CCCCCN1C[C@H](O)[C@@H](O)[C@H](O)[C@@H]1CO | male human, plasma | oral, 30 mg, single dose, fasted, healthy volunteers | 311 ng/mL |
| Nc1ncc(-c2cnn(CCO)c2)c2scc(-c3ccc(NC(=O)Nc4cccc(F)c4)cc3)c12 | human, plasma | oral, 10 mg, patients | 37 ng/mL |
| CC(C)NC[C@@H](C(=O)N1CCN(c2ncnc3c2[C@H](C)C[C@H]3O)CC1)c1ccc(Cl)cc1 | human, matched normal hepatic function (Child-Pugh), plasma | oral, 100 mg single, reference geometric mean, vs Severe | 48.9 ng/mL |
| CCCC[C@H](NC(C)=O)C(=O)N[C@H]1CCC(=O)NC[C@@H](C(=O)N[C@@H](Cc2c[nH]c3ccccc23)C(N)=O)NC(=O)[C@H](CCCNC(=N)N)NC(=O)[C@@H](Cc2ccccc2)NC(=O)[C@H](Cc2c[nH]cn2)NC1=O | CD Sprague-Dawley rat, male, plasma | subcutaneous, 1.0 mg/kg/day, day 1 | 525 ng/mL |
| Cc1cc(Nc2cc3ncccc3c(N[C@@H]3C[C@H]4CC[C@@H](C3)N4CCC#N)n2)n[nH]1 | beagle dog, male, plasma | oral, 10 mg/kg/day, last day of 4 weeks | 8.11 ng/mL |
| CCCOc1ccc([C@H]2CNC(=O)N2c2ccc3[nH]cnc3c2)cc1 | human, plasma | oral, 800 mg, multiple doses, twice daily, fasted | 6450 ng/mL |
| CNCc1ccc(-c2[nH]c3cc(F)cc4c3c2CCNC4=O)cc1 | human patients, plasma | oral, 80 mg once daily, day 15, steady state, arithmetic mean | 175 ng/mL |
| COc1cccc(-c2n[nH]c(SCc3ccccn3)n2)c1OC | Sprague-Dawley rat, both sexes, plasma | oral, diet, 100 mg/kg/day, day 90 | 10400 ng/mL |
| O=C1N=C(N2CCOCC2)CN1c1ccc(Cl)cc1 | beagle dog, both sexes, plasma | oral, 30 mg/kg twice daily, day 5, tablets, after 4 days dosing | 14900 ng/mL |
| Cn1c(C(F)(F)F)cc(=O)n(-c2cc(Oc3cccnc3OCC(=O)O)c(Cl)cc2F)c1=O | beagle dog, female, plasma | oral capsule, 100 mg/kg/day epyrifenacil, week 13, 90-day study | 1920 ng/mL |
| Cc1nc2cccc(OCC(C)(C)C(=O)NC(C)C)c2c(N)c1C(=O)O | male Sprague-Dawley rat, plasma | dietary, 60 mg/kg/day, day 90 | 146 ng/mL |
| CNC(=O)c1ccc(-c2cnn3ccc(C(=O)N(CC(=O)O)c4ccc(Cl)cc4)cc23)cc1 | female C57BL/6 mouse, plasma | oral, 10 mg/kg | 50 nM |
| CC1=C2C[C@H]3[C@@H](CC[C@@H]4C[C@H](NS(C)(=O)=O)CC[C@@]43C)[C@@H]2CC[C@@]2(C1)O[C@@H]1C[C@H](C)CN[C@H]1[C@H]2C | patients, plasma | oral, 20 mg single, day -7, cycle 1 | 6.66 ng/mL |
| CC(C)[C@H](N)C(=O)NCCCS(=O)(=O)O | human, both sexes, plasma | oral, 100 mg capsule | 3650 ± 1440 ng/mL |
| CS(=O)(=O)Nc1ccc(C(=O)O[C@@H](Cc2c(Cl)c[n+]([O-])cc2Cl)c2ccc(OC(F)F)c(OCC3CC3)c2)cc1OCC1CC1 | human, plasma | inhaled, 1200 µg once daily, day 7, single-dose dry powder inhaler | 1.69 ng/mL |
| O=C(CCCCCCC(=O)Nc1ccccc1)NO | patients, serum | oral, 400 mg, cycle 1 day 2, with: flavopiridol 30+30 mg/m2 | 2110 nM |
| O=c1[nH]c(=O)c(Cc2cccc(C(F)(F)F)c2)c([C@H]2CC[C@H](c3ccccc3)CC2)[nH]1 | human, plasma | oral, 450 mg once daily, day 7, geometric mean | 523 ng/mL |
| CN1CCN(CCOc2cc(OC3CCOCC3)c3c(Nc4c(Cl)ccc5c4OCO5)ncnc3c2)CC1 | beagle dog, both sexes | oral, 5 mg/kg/day, week 39, repeated daily dosing | 389 ng/mL |

Repeated from above:
| Compound | test system | setting | Cmax |
| --- | --- | --- | --- |
| COc1cccc(-c2n[nH]c(SCc3ccccn3)n2)c1OC | Sprague-Dawley rat, both sexes, plasma | oral, diet, 100 mg/kg/day, day 90 | 10400 ng/mL |
| CCCOc1ccc([C@H]2CNC(=O)N2c2ccc3[nH]cnc3c2)cc1 | human, plasma | oral, 800 mg, multiple doses, twice daily, fasted | 6450 ng/mL |
